{"data": "Measurements pooled from the literature", "note": "Each numbered part is a random draw from the data of one study; scales do not carry over between parts."}
{"data": "Study 1", "target": "Cyclic AMP-dependent transcription factor ATF-1 (ATF1, Homo sapiens, UniProt P18846, residues 1-271, full length assumed)", "method": "protein-binding microarray", "molecule type": "double-stranded DNA, one strand shown", "medium": "in vitro", "concentration": "not given", "setting": "k-mer, scored over probes, only values ≥0.25", "reading": "higher = stronger binding", "Target sequence (chain)": "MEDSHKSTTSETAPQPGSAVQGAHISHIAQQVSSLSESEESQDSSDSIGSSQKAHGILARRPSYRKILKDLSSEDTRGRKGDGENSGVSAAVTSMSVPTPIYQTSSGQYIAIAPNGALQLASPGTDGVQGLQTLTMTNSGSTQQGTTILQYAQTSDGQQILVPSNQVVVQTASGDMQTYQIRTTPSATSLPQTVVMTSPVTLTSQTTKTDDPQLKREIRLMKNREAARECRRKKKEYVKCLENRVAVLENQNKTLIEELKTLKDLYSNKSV"}
{"Oligonucleotide": "GACGCAA", "E-score": 0.331}
{"Oligonucleotide": "GGTGACA", "E-score": 0.278}
{"Oligonucleotide": "CACCAAC", "E-score": 0.262}
{"Oligonucleotide": "TACATCA", "E-score": 0.276}
{"Oligonucleotide": "ATGACAA", "E-score": 0.275}
{"Oligonucleotide": "GAATGAC", "E-score": 0.252}
{"data": "Study 2", "target": "RNA binding protein fox-1 homolog 2, RRM domain, GST-SBP tag (RBFOX2, Homo sapiens, UniProt O43251-10, residues 100-194)", "method": "RNA Bind-n-Seq", "molecule type": "RNA", "medium": "in vitro", "concentration": "365 nM", "setting": "natural RNA segment, single round, ends assumed", "reference": "no-protein control", "reading": "higher = stronger binding"}
{"Oligonucleotide": "GGGAGUUCUACAGUCCGACGAUCACUCUAAGCUCCCACCUAAUAAGAAGCAUAGGCAGACCAGCCAGAGGGAGAGCCAAUGGCCUCUGGUAGCCUUAAGCCCAAAGGGCAGUGGGAAUGUCCCCUGCCCCAACUGGAAUUCUCGGGUGCCAA", "RBNS enrichment (R)": 0.499}
{"Oligonucleotide": "GGGAGUUCUACAGUCCGACGAUCAGGGCCUCUCCCUCGUUGUCAUGUGCACUUUCCGUCUGAGGGAACUGCAGCUGCUGGAAGGCCAGCUGCUCAGACAAUCCCCAGCAUCCCCGGAACAGACACCCCCCCCCUGGAAUUCUCGGGUGCCAA", "RBNS enrichment (R)": 0.873}
{"Oligonucleotide": "GGGAGUUCUACAGUCCGACGAUCUCAAAACUGUGCUUCCAUUAUUAGUGCAAGAAACAGACAGGCUUUAAGGGGUAGAUGACGUGAAAUUUUGCAAGUCUUAAUUACAGCUGCAGAUGCAUGGGAUUCUGGAUUGGAAUUCUCGGGUGCCAA", "RBNS enrichment (R)": 1.98}
{"Oligonucleotide": "GGGAGUUCUACAGUCCGACGAUCUCUGAGGUGAAAGACCUUCUUCUCAGGGGGCAGGCUCCACCAGGAAUGGAGGAUCAAUCGCUGUAAUAUUCUAGUGUUGAGUGUAGCUCUUGGGGUCUGAACUAUGGAGGUGGAAUUCUCGGGUGCCAA", "RBNS enrichment (R)": 0.724}
{"data": "Single results of other studies"}
{"Molecule": "GSALKKLFTSTGL", "target or system": "human cyclin B2", "assay": "peptide binding, yeast competitive growth sequencing", "system": "peptide, Saccharomyces cerevisiae, cyclin B2-Cln2 fusion", "conditions": "concentration not given, library 1", "scale": "direction not given", "quantity": "binding enrichment score", "value": -1.04}
{"Molecule": "PhoQ, residues 284 288 289 292 302 303 TASMAF", "target or system": "PhoP, residues 12 14 15 18 19 VHSCL (Escherichia coli, UniProt P23836)", "assay": "Sort-seq, refers to: YFP reporter", "system": "E. coli", "conditions": "PhoQ-PhoP variant library, together with: 10 µM Mg2+", "scale": "reference: high Mg2+ state, higher = stronger signaling", "quantity": "fold induction", "value": 15.6}
{"Molecule": "MDASRQLMLNEEQ", "target or system": "Saccharomyces cerevisiae", "assay": "peptide binding, yeast competitive growth sequencing", "system": "peptide, cyclin F-Cln2 fusion", "conditions": "concentration not given, Cln2 background subtracted", "scale": "direction not given", "quantity": "binding score", "value": 1.45}
{"note": "Repeated from above (study 1):"}
{"Oligonucleotide": "TACATCA", "E-score": 0.276}
{"Oligonucleotide": "ATGACAA", "E-score": 0.275}
